Measurements collected from several papers.
Numbered parts are unrelated; each lists some results of a single study.

Study 1 — effect on: enzyme activity; action: inhibitor; concentration: 20 µM; measurement: inhibition
Target: Replicase polyprotein 1ab, polymerase (rep, Severe acute respiratory syndrome coronavirus 2, UniProt P0DTD1)
OB1OCc2cc(F)ccc21: -2.28%
[O-][S+](c1ccccc1)c1ccc2nnnn2n1 (stereo not shown): 0.49%
O=C(Nc1ccc(S(=O)(=O)Nc2nccs2)cc1)C(c1ccccc1)c1ccccc1: -3.37%
Cc1ccc(N2CCN(CCC3NC(=O)c4ccccc43)CC2)cc1C (stereo not shown): 3.28%
Cc1cc(C)c(N)c(C#Cc2cccc(F)c2)n1: 3.61%
O=C1CN(/N=C/c2ccc([N+](=O)[O-])o2)C(=O)N1: 20.6%
NCC(CC(=O)O)c1ccc(Cl)cc1 (racemic): -5.71%
O=C1NCC2(CCN(CCc3ccccc3)CC2)O1: 18%
O=C(c1cccc(Cl)c1F)N1CCN(Cc2cccc(Nc3nccs3)n2)CC1: -1.43%
CC1(C(=O)O)NCCc2cc(O)c(O)cc21 (stereo not shown): -0.55%
CC(=O)OCC1=C(C(=O)O)N2C(=O)[C@@H](NC(=O)Cc3cccs3)[C@H]2SC1: 22.6%
C[C@]12CC[C@@H]3c4ccc(OC(=O)c5ccccc5)cc4CC[C@H]3[C@@H]1CC[C@@H]2O: 28.8%
CN1CC[C@@]2(C)c3cc(OC(=O)Nc4ccccc4)ccc3N(C)[C@@H]12: -1.9%
O=C(O)CC(O)C(=O)O (stereo not shown): -2.64%
O=C(/C=C\n1cnc(-c2cc(C(F)(F)F)cc(C(F)(F)F)c2)n1)N1CC(F)(F)C1: -1.09%
CCOC(=O)c1c(C)[nH]c2ccc3c(c12)CN1CCc2cc(OC)ccc2C1O3 (stereo not shown): -2.86%
C[n+]1ccc(C(=O)NCc2ccccc2)cc1: 3.61%
O=c1[nH]c(=O)n([C@H]2C[C@H](O)[C@@H](CO)O2)cc1C(F)(F)F: -4.08%
COc1ccc([C@]2(C#N)CC[C@@H](C(=O)O)CC2)cc1OC1CCCC1: -0.53%
CCN(C(C)=O)c1cccc(-c2ccnc3c(C#N)cnn23)c1: -11.7%
CCC(=O)NC1CCc2cccc(OC)c2C1 (stereo not shown): -0.05%
CNc1cc2c(Nc3cccc(Br)c3)ncnc2cn1: 6.87%
CC(=O)N(CC(C)C(=O)O)c1c(I)cc(I)c(N)c1I (stereo not shown): -1.89%
Cc1c(F)cc(C(=O)NC2CC2)cc1-c1ccc(C(=O)NCC(C)(C)C)cn1: -1.73%
CC(=O)N(O)[C@@H]1c2cc(C#N)ccc2OC(C)(C)[C@H]1O: -2.21%

Study 2 — technique: universal PBM; form: double-stranded DNA, one strand shown; matrix: in vitro; concentration: 600 nM; direction: higher = stronger binding; measurement: E-score
Target: Sal-like protein 4, full length isoform A (SALL4, Homo sapiens, UniProt Q9UJQ4, residues 1-1053)
Sequence of UniProt Q9UJQ4 (whole entry, looked up): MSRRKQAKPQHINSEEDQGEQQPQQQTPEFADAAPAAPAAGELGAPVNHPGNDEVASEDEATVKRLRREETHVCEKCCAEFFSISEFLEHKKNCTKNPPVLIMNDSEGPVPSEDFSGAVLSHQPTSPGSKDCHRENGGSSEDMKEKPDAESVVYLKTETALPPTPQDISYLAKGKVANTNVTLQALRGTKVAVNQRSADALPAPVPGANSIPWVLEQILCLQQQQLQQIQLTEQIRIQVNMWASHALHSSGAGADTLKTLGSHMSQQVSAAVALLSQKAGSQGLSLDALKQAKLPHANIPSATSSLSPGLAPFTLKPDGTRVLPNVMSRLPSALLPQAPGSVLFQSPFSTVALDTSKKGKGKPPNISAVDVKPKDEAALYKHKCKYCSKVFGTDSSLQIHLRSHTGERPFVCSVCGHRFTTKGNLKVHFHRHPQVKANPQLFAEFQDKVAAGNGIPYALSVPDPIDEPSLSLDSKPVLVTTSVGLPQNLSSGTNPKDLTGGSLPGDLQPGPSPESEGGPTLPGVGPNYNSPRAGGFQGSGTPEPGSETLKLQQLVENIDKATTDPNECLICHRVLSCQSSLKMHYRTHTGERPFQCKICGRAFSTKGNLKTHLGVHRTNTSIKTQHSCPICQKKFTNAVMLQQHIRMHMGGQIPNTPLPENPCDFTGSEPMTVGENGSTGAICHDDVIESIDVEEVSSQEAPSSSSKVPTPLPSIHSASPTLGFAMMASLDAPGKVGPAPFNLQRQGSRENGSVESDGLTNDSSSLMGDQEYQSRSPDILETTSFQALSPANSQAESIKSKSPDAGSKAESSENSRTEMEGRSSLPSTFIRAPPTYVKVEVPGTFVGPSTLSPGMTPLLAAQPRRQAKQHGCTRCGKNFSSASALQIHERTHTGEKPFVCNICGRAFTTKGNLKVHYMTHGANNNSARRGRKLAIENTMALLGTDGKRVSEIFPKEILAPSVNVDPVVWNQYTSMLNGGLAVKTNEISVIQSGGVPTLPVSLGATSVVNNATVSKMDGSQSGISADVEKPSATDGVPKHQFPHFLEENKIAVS
Setting: 8-mer, flanks averaged, mean of replicates
CGCAATAC: 0.101
CAGACAGC: -0.167
GACCGGCC: -0.38
GAGACTCA: -0.0264
AAACGAGC: 0.0684
CACCATAG: -0.168
CCAATAGC: -0.0467
ATTCCAAC: 0.0673

Study 3 — technique: RNA Bind-n-Seq; form: RNA; matrix: in vitro; concentration: 1 µM; setting: whole 134-nt RNA, ends assumed; together with: 150 mM KCl; relative to: input library; direction: higher = stronger binding; measurement: log2 enrichment
Target: Ras GTPase-activating protein-binding protein 1, RRM domain (G3BP1, Homo sapiens, UniProt Q13283)
Sequence of UniProt Q13283 (whole entry, looked up): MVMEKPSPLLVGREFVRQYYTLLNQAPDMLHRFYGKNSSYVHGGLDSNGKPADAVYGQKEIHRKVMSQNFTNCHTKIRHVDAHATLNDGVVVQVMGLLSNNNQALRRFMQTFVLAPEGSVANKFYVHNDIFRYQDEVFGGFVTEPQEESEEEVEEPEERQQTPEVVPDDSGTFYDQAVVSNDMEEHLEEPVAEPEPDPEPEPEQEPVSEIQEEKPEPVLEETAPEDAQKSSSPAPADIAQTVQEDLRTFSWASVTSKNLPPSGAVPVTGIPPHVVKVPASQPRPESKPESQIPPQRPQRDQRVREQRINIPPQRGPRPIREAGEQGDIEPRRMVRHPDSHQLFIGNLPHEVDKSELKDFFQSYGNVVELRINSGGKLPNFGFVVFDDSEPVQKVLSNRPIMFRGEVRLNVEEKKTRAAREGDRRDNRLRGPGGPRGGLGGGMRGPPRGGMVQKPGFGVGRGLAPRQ
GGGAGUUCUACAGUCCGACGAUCAAGUCCUGUGCUACACAUCGUAUGUACCGAAUCGGGUUUGGGAGGGUUUUUUUGGGAAAGUAUUAUGUUACGCCGUUCGGAUCUGCACUUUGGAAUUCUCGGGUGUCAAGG: 0.305
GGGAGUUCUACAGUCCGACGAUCCCUCAAGUCCUGUGCUACACAUCGUAUGUACCGAAUCGGGGCCGGCCGGCCGGAAAGUAUUAUGUUACGCCGUUCGGAUCUGCACUUCCAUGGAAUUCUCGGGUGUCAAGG: -0.479
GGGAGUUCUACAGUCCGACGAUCUGGGAGGUGGAUUUUGUUUAUUUUUUUAGCUCAUUUCCAGGGGUGGGAAUUUUUUUUUAAUAGGUGUCAUGAAUAAAGUUGUUUUUGAAAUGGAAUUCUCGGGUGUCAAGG: 1.53
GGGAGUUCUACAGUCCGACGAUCACCAUGCAGGUGGGCAUCUUUGGGAAGUGGGGCAAGGGGGGGAUAGGGAGGGGGGUAACACUUUGGGCACAGGUGGUCCCAGGUCGUUUCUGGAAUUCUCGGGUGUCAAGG: 0.93
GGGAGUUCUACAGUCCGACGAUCAGUCCUGUGCUACACAUCGUAUGUACCGAAUCGGAAAAAGGAAAAAGGAAAAAAAGGAAAGUAUUAUGUUACGCCGUUCGGAUCUGCACUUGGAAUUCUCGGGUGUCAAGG: 0.122
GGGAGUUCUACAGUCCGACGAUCUGGGAGGUGGAUUUUGUUUAUUUUUUUACCUCAUUUCCAGGGGUGGGAAUUUUUUUUUAAUAUGUGUCAUGAAUAAAGUUGUUUUUGAAAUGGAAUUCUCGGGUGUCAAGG: 1.75
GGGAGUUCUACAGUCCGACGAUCCCUGUGCUACACAUCGUAUGUACCGAAUCGGCCCCCCCGGGGCCCCCCCGGCCCCCCCGGGAAAGUAUUAUGUUACGCCGUUCGGAUCUGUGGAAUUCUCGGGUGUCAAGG: -0.622

Study 4 — effect on: enzyme activity; action: inhibitor; concentration: 20 µM; setting: hit confirmation, with DTT; measurement: inhibition
Target: Replicase polyprotein 1ab, main protease (rep, Severe acute respiratory syndrome coronavirus 2, UniProt P0DTD1)
CC(C)N(CCC(=O)c1ccc2ccccc2c1)Cc1ccccc1: 6%
O=NN(CCCl)C(=O)NC1CCCCC1: 2.6%
COC(=O)CC[C@H](NC(=O)[C@H](CC(=O)OC)NC(=O)OCc1ccccc1)C(=O)N[C@H](C(=O)N[C@@H](CC(=O)OC)C(=O)CF)C(C)C: 99.1%
CC(CN1CC(=O)NC(=O)C1)N1CC(=O)NC(=O)C1 (stereo not shown): 9.8%

Study 5 — organism: Vesicular stomatitis virus; effect on: pseudovirus infection; concentration: concentration not given; setting: SARS-CoV-2 spike pseudotype; measurement: GFP signal
O=C([O-])CN(CCN(CC(=O)[O-])CC(=O)O)CC(=O)[O-].[Na+].[Na+].[Na+]: 83.1%
O.O.O.O.O=C([O-])CC(O)(CC(=O)[O-])C(=O)[O-].[Li+].[Li+].[Li+]: 103%
Brc1c(NC2=NCCN2)ccc2nccnc12.O=C(O)C(O)C(O)C(=O)O: 100%

Study 6 — technique: RNA Bind-n-Seq; form: RNA; matrix: in vitro; concentration: 100 nM; relative to: input RNA pool; direction: higher = stronger binding; measurement: bound/input enrichment
Target: RING finger protein unkempt homolog, zinc fingers 1-6, SBP tag (UNK, Homo sapiens, UniProt Q9C0B0, residues 30-357)
Sequence of UniProt Q9C0B0 (30-357, looked up): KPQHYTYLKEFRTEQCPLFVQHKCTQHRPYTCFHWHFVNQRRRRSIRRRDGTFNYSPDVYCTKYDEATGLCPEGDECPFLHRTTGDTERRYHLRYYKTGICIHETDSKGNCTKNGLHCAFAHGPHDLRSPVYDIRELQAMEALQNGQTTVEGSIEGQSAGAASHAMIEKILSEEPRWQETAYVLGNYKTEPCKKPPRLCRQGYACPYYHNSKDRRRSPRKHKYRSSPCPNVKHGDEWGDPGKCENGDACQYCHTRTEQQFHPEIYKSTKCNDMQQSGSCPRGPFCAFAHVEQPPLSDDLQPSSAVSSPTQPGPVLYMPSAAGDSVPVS
Setting: RNA with constant flanks, vertebrate orthologous sites, ends assumed
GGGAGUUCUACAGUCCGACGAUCGUCCCGGCAGCGCCAGCGAGGGUAGCCGCCCUUCUCACACUGCUCUGUCUUUAUUUAUUUUCCUCAGGACUGACCCUGAGGCUCCAGCUUUUGUGGUUCAUCUCGUAUUUAUUUUAUCUUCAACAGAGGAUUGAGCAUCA: 1.35 ratio
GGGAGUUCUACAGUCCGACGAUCGUGAGGGUCUCCUGACCGCUCGCUGUUAUGUCUGGUAUCUGUAAACACUCUUUUUGUUCUUAGUCUUUUUCUUGUAUAAUUGAUGUUCUUUAAAAUUGUUCAUGUAUAACAGGGCUUAUGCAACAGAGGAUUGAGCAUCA: 1.5 ratio
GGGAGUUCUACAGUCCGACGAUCGUUAGGUCAUGACCCUUAUAGGUUGGGUCAUGACGCCUACAGGUUAGGGCAGGACCCCUAUAGAUUAGGCCAUGAUCCCUAUAGACUAACUCCUGAUCCCUAUAGGAUGUCACCUAGACCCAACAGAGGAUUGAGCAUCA: 0.722 ratio
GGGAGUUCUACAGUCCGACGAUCUGCCCGUUUACCCCUAAAAUAGGACUUUUUUUUAGAAUUCUGUUGCCACUUCUAAAAUCUUAGCAAUAUUAGAAUAACACACCACUGAAAUAAAUUUUACUCAUUAUUUUACAAACCAAACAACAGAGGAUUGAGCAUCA: 1.8 ratio
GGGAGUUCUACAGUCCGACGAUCAUCAUGGCCACUUUUACCUGCCUCAAUGAGGUAAUGUCUCCCCUGGCGUUUGGUUGGCGCUAGAGCCCAUCACACCUAAUAUGUCUUUCCACAUUUCAUUUCUUCACGCUUACAGUCAGUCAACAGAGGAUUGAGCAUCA: 0.671 ratio

A few entries again (study 1):
CCN(C(C)=O)c1cccc(-c2ccnc3c(C#N)cnn23)c1: -11.7%
CCC(=O)NC1CCc2cccc(OC)c2C1 (stereo not shown): -0.05%
CNc1cc2c(Nc3cccc(Br)c3)ncnc2cn1: 6.87%
CC(=O)N(CC(C)C(=O)O)c1c(I)cc(I)c(N)c1I (stereo not shown): -1.89%
Cc1c(F)cc(C(=O)NC2CC2)cc1-c1ccc(C(=O)NCC(C)(C)C)cn1: -1.73%
